# Measured values of several laboratories.
# Each line is one published result; not all experiments were run side by side. Values joined by “and” are separate records of one study, mostly repeats; a detail may differ. Numbers after ± are the reported error.
SMILES,organism,assay,system,setting,IC50
O=Cc1cn(Cc2ccc(F)cc2)c2ccc([N+](=O)[O-])cc12,Leishmania major,"parasite growth, resazurin",THP-1,"72 h, intracellular, amastigote",12.9 µM
CN1CCN2CCN(CC1)CCN(Cc1ccccc1)CC2,Leishmania donovani,"parasite growth, resazurin",,"72 h, promastigote",> 20 µM
CC(C)C1=CC2=CC(=O)[C@H]3C(C)(C)CCC[C@]3(C)C2=C(O)C1=O,Leishmania amazonensis,parasite growth,mouse Peritoneal macrophage,"72 h, intracellular, amastigote",4.5 µg/mL
CC[C@H](C)[C@H](NC(=O)[C@H](CC(C)C)NC(=O)[C@H](Cc1c[nH]cn1)NC(=O)[C@H](Cc1c[nH]cn1)NC(=O)[C@@H](NC(=O)[C@H](Cc1ccccc1)NC(=O)[C@H](Cc1c[nH]cn1)NC(=O)[C@H](Cc1c[nH]c2ccccc12)NC(=O)[C@@H](NC(=O)[C@H](Cc1c[nH]cn1)NC(=O)[C@H](Cc1c[nH]cn1)NC(=O)[C@H](Cc1c[nH]c2ccccc12)NC(=O)[C@@H](N)CC(C)C)[C@@H](C)CC)C(C)C)C(N)=O,Herpes simplex virus 1,"virus inactivation, plaque reduction","Vero, F",37 °C,0.86 µg/mL
CC[C@H](C)[C@H](NC(=O)[C@H](CCCNC(=N)N)NC(=O)[C@H](Cc1ccccc1)NC(=O)[C@H](Cc1c[nH]cn1)NC(=O)[C@@H](NC(=O)[C@H](Cc1ccccc1)NC(=O)[C@H](CC(C)C)NC(=O)[C@H](CC(C)C)NC(=O)[C@H](CCC(N)=O)NC(=O)[C@H](CCC(N)=O)NC(=O)[C@H](CC(C)C)NC(C)=O)[C@@H](C)CC)C(=O)NCC(=O)N[C@@H](CCCNC(=N)N)C(=O)N[C@@H](CCCNC(=N)N)C(=O)N[C@@H](CCCNC(=N)N)C(=O)N[C@@H](CCCNC(=N)N)C(=O)N[C@@H](CCCNC(=N)N)C(=O)N[C@@H](CCCNC(=N)N)C(=O)N[C@@H](CCCNC(=N)N)C(=O)N[C@@H](CCCNC(=N)N)C(N)=O,HIV-1 JR-CSF (R5-tropic),"viral replication, inhibitor, item: p24",NP2-CD4-CCR5,day 4,~0.8 µM
C[C@H]1N[C@@H](CCCCCCCCCCC2=C[C@@H](CCCCCCCCCC[C@H]3CC[C@@H](O)[C@@H](C)N3)[C@@H]3CCCN3C2)CC[C@H]1O,Leishmania donovani,"parasite growth, resazurin",,"72 h, promastigote",0.3 µg/mL
CCCC[C@H]1C(=O)O[C@H](C)[C@H](NC(=O)c2cccc(NC=O)c2O)C(=O)O[C@@H](C)[C@@H]1OC(=O)CC(C)C,Wickerhamomyces anomalus,"O2 uptake, inhibitor",mitochondria,with: NADH 1 mM,0.021 µM
COC(=O)C1OC1c1cc(OC)c(O)c(OC)c1 (stereo not shown),human rhinovirus 2,cytopathic effect,HeLa,72 h,inactive
OCC1CC(n2cnc3c(SCc4ccc(Br)cc4)ncnc32)C(O)C1O (stereo not shown),Toxoplasma gondii,"parasite growth, radiolabelled uracil incorporation","RH wild type, tissue culture",,18.3 ± 1.3 µM
CC[C@H](C)[C@H](NC(=O)[C@H](C)NC(=O)[C@H](C)NC(=O)[C@H](CC(N)=O)NC(=O)[C@H](C)NC(=O)[C@H](C)NC(=O)[C@H](C)NC(=O)[C@H](CCCNC(=N)N)NC(=O)[C@H](CC(C)C)NC(=O)[C@@H](NC(=O)[C@H](CCC(=O)O)NC(=O)[C@@H]1CCCN1C(=O)CNC(=O)[C@H](CCCCN)NC(=O)[C@H](CCC(=O)O)NC(=O)[C@H](CCCCN)NC(=O)[C@@H](NC(=O)[C@H](Cc1ccccc1)NC(=O)[C@H](CC(=O)O)NC(=O)[C@H](CCCCN)NC(=O)[C@H](C)NC(=O)[C@H](CCCCN)NC(=O)[C@H](CC(N)=O)NC(=O)[C@H](CC(C)C)NC(=O)[C@H](Cc1c[nH]c2ccccc12)NC(=O)[C@H](CC(=O)O)NC(=O)[C@H](CCCCN)NC(=O)[C@H](Cc1c[nH]c2ccccc12)NC(=O)CN)[C@@H](C)CC)[C@@H](C)CC)C(=O)N[C@@H](CC(N)=O)C(=O)O,Haemonchus contortus,larval development,Kirby isolate,"6 days, 26 °C",5.6 µM and < 6 µM
O=c1[nH]cc(F)c(=O)[nH]1,human papillomavirus 16,"pseudovirus infection, inhibitor",293FT,pseudovirus,0.4 µM
O=C(O)C(Cl)Cl,Leishmania infantum,intracellular amastigotes,U-937 macrophages,48 h,632 ± 0.0163 µM
CCC(=O)Nc1cc(Nc2cc(NC3CC3)n3ncc(C#N)c3n2)ccc1N(C)CCN1CCCC1,murine hepatitis virus,"viral replication, nanoluciferase reporter",DBT,10 h,0.794 µM
[N-]=[N+]=[N-],Plasmodium yoelii,oxygen consumption,17XL,,810 µM
CCCCCCCCCCCCCC#CC(=O)O,Trypanosoma brucei rhodesiense,,STIB900 bloodstream form,72 h,21.1 µg/mL
CCC(=O)Nc1cc(Nc2cc(NC3CC3)n3ncc(C#N)c3n2)ccc1N1CCCC(NC)C1 (stereo not shown),murine hepatitis virus,"viral replication, nanoluciferase reporter",DBT,10 h,0.251 µM
N#Cc1ccc(CSc2ncnc3c2ncn3C2CC(CO)C(O)C2O)cc1 (stereo not shown),Toxoplasma gondii,"parasite growth, radiolabelled uracil incorporation","RH wild type, tissue culture",,49 ± 10.3 µM
O=Cc1cn(Cc2ccccc2)c2ccc([N+](=O)[O-])cc12,Trypanosoma congolense,,"trypomastigotes, IL3000",,> 89 µM
C/C(=C\Cc1c(O)c(Cl)c(C)c(C=O)c1O)CC/C=C(\C)[C@@H]1CC(=O)C(C)(C)O1,Wickerhamomyces anomalus,"O2 uptake, inhibitor",mitochondria,with: duroquinol 1 mM,52 µM
Cc1ccc(Cn2cc(C=O)c3cc([N+](=O)[O-])ccc32)cc1,Leishmania major,"parasite growth, resazurin",THP-1,"72 h, intracellular, amastigote",> 10 µM
C/C=C1\CN2CCC34CC5C6CC7c8c(c9ccccc9n8C)CC(C6COC5(C)OC35C2CC1C(C(=O)OC)N5c1ccccc14)N7C (stereo not shown),Leishmania mexicana,"parasite growth, flow cytometry",,promastigote,> 200 µM
CSCC[C@H](NC(=O)[C@H](Cc1ccccc1)NC(=O)[C@H](Cc1c[nH]c2ccccc12)NC(=O)[C@H](CCC(=O)O)NC(=O)[C@H](CCCNC(=N)N)NC(=O)[C@H](Cc1c[nH]cn1)NC(=O)[C@@H](NC(=O)[C@H](CC(C)C)NC(=O)[C@H](Cc1ccccc1)NC(=O)[C@@H](N)[C@@H](C)O)C(C)C)C(=O)N[C@@H](CC(=O)O)C(=O)N[C@@H](CC(C)C)C(=O)N[C@@H](CC(N)=O)C(=O)N[C@@H](CC(C)C)C(=O)N1CCC[C@H]1C(=O)N[C@@H](Cc1c[nH]c2ccccc12)C(=O)N[C@@H](CO)C(=O)N[C@@H](CO)C(=O)N[C@@H](C)C(=O)O,West Nile virus,"viral replication, plaque reduction","LLC-MK2, Egypt 101",,~10 µM
OCC1CC(n2cnc3c(SCc4ccccc4F)ncnc32)C(O)C1O (stereo not shown),Toxoplasma gondii,"parasite growth, radiolabelled uracil incorporation","RH wild type, tissue culture",,38.9 ± 15.6 µM
CO/C(=C/C(N)=O)[C@H](C)[C@H](/C=C/c1csc(-c2csc([C@@H](C)/C=C/C=C/C(C)C)n2)n1)OC,Wickerhamomyces anomalus,"O2 uptake, inhibitor",mitochondria,with: NADH 1 mM,0.069 µM
O=C(O)c1ccc2c(c1)nc(Nc1cccc(Cl)c1)c1ccncc12,murine hepatitis virus,"viral replication, nanoluciferase reporter",DBT,10 h,0.631 µM
O=Cc1cn(Cc2cccc(Cl)c2)c2ccc([N+](=O)[O-])cc12,Trypanosoma congolense,,"trypomastigotes, IL3000",,> 79 µM
N#CSCCOc1ccc(Oc2ccccc2)cc1,Toxoplasma gondii,,tachyzoites,,4.8 ± 0.41 µM
CC(=O)Nc1ccc2ccn(-c3cc(NC4CC(F)(F)C4)n4ncc(C#N)c4n3)c2c1,murine hepatitis virus,"viral replication, nanoluciferase reporter",DBT,10 h,1 µM

# For quick reference, copied from above:
SMILES,organism,assay,system,setting,IC50
CSCC[C@H](NC(=O)[C@H](Cc1ccccc1)NC(=O)[C@H](Cc1c[nH]c2ccccc12)NC(=O)[C@H](CCC(=O)O)NC(=O)[C@H](CCCNC(=N)N)NC(=O)[C@H](Cc1c[nH]cn1)NC(=O)[C@@H](NC(=O)[C@H](CC(C)C)NC(=O)[C@H](Cc1ccccc1)NC(=O)[C@@H](N)[C@@H](C)O)C(C)C)C(=O)N[C@@H](CC(=O)O)C(=O)N[C@@H](CC(C)C)C(=O)N[C@@H](CC(N)=O)C(=O)N[C@@H](CC(C)C)C(=O)N1CCC[C@H]1C(=O)N[C@@H](Cc1c[nH]c2ccccc12)C(=O)N[C@@H](CO)C(=O)N[C@@H](CO)C(=O)N[C@@H](C)C(=O)O,West Nile virus,"viral replication, plaque reduction","LLC-MK2, Egypt 101",,~10 µM
OCC1CC(n2cnc3c(SCc4ccccc4F)ncnc32)C(O)C1O (stereo not shown),Toxoplasma gondii,"parasite growth, radiolabelled uracil incorporation","RH wild type, tissue culture",,38.9 ± 15.6 µM
CO/C(=C/C(N)=O)[C@H](C)[C@H](/C=C/c1csc(-c2csc([C@@H](C)/C=C/C=C/C(C)C)n2)n1)OC,Wickerhamomyces anomalus,"O2 uptake, inhibitor",mitochondria,with: NADH 1 mM,0.069 µM
O=C(O)c1ccc2c(c1)nc(Nc1cccc(Cl)c1)c1ccncc12,murine hepatitis virus,"viral replication, nanoluciferase reporter",DBT,10 h,0.631 µM
